Results gathered from unrelated publications.
Compare with care: the assays were run in different laboratories. ± marks the error that the study gave.

O=C1CC2(C1)C(=O)[O][Pt]1([Cl])([O]C(=O)C(F)(F)F)([NH][C@@H]3CCCC[C@H]3[NH]1)[O]C2=O gave an IC50 of 7.66 µM (NCI-H460; cell growth or viability, MTT).
C=C(CC(O)C(=O)O)C(=O)O (racemic) has an IC50 of 40 µM (K562 parental; cell growth; 72 h).
C=C1C2CC3(C1O)C1CC4C5(C)CCC(O)C4(C1N(CC)C5)C3CC2O (stereo not shown) has an IC50 of 28.8 µM (HBE; cell growth or viability, MTT).
CC(C)[C@H](NC(=O)[C@H](C(C)C)N(C)C)C(=O)N(C)[C@H](C(=O)N1CCC[C@H]1C(=O)N1CCC[C@H]1C(=O)O)C(C)C gave an IC50 of 3 µM (CA46; cell growth or viability; 48 h).
CNC(=O)c1cc(Oc2ccc(NC(=O)CCC(=O)OC3OC4OC5(C)CCC6C(C)CCC(C3C)C46OO5)cc2)ccn1 (stereo not shown) gave an IC50 of 50.8 µM (L02; cell growth or viability, MTT; 72 h).
COc1cc(C=CC(=O)CC(=O)C=Cc2ccc(OC(=O)CCC(=O)OC3OC4OC5(C)CCC6C(C)CCC(C3C)C46OO5)c(OC)c2)ccc1OC(=O)CCC(=O)OC1OC2OC3(C)CCC4C(C)CCC(C1C)C24OO3 (stereo not shown) gave an IC50 of over 300 µM (C3PV; cell growth or viability, MTT; 24 h).
COc1ccnc(-c2cc(OC)ccn2)c1.[C-]#[O+].[C-]#[O+].[C-]#[O+].[Re+] gave an IC50 of 0.77 ± 0.17 µM (KB 3-1; cell viability).
COC(=O)CC[C@@H](NC(=O)[C@@H](Cc1ccc(OP(=O)(O)O)cc1)NC(=O)[C@@H](Cc1ccccc1)NC(=O)[C@@H](Cc1ccccc1)NC(=O)Cc1ccc2ccccc2c1)C(=O)OC gave an IC50 of over 20 µM (OVSAHO; cell viability; day 1 (24 h)).
The IC50 of COCC12CCC(OC)C34C5CC6(O)C(OC)C(O)C(O)(C5C6OC(=O)c5ccccc5)C(C(OC)C13)C4N(C)C2 (stereo not shown) is reported as 21.8 µM (NCI-H460; cell growth or viability, MTT).
With CC(C)[C@@H]1NC(=O)[C@H](C)OC(=O)[C@@H](C(C)C)NC(=O)[C@@H](C(C)C)OC(=O)[C@H](C(C)C)NC(=O)[C@H](C)OC(=O)[C@@H](C(C)C)NC(=O)[C@@H](C(C)C)OC(=O)[C@H](C(C)C)NC(=O)[C@H](C)OC(=O)[C@@H](C(C)C)NC(=O)[C@H](C)OC1=O the IC50 was 1.4 µM (SHG-44; cell growth or viability, SRB; 72 h).
For CCOP(=O)(OCC)OCCCCOC(=O)CC1=C(C)C(=Cc2ccc([S+](C)[O-])cc2)c2ccc(F)cc21 (stereo not shown), the IC50 was 68 µM (A549 EGFR siRNA knockdown; cell viability; 24 h).
With CCN1CC2(COC)CCC(OC)C34C5CC6C(OC)CC(C5C6O)C(C(OC)C23)C14 (stereo not shown) the IC50 was 9.92 µM (NCI-H460; cell growth or viability, MTT).
The IC50 of Cc1cc([C@H](NC(=O)c2cnccc2-c2ccc(C(F)(F)F)cc2)C(=O)N(C)C)cc(C(F)(F)F)c1 is reported as 0.2 ± 0.2 µM (KHYG-1 with Ba/F3-MICA cells; NKG2D-mediated cell killing, inhibitor; 6 h).
For C[C@H]1C(OCCCCCCCCCC[P+](c2ccccc2)(c2ccccc2)c2ccccc2)O[C@@H]2O[C@@]3(C)CCC4[C@H](C)CCC1[C@]42OO3 (stereo partly shown), the IC50 was 0.33 ± 0.0209 µM (HUVEC; cell viability, MTT; 72 h).
With N=C(N)NCCC[C@H](NC(=O)[C@H](CCCNC(=N)N)NC(=O)[C@@H]1CCCN1C(=O)[C@H](CCCNC(=N)N)NC(=O)[C@H](CCCNC(=N)N)NC(=O)[C@H](CCCNC(=N)N)NC(=O)[C@H](Cc1c[nH]c2ccccc12)NC(=O)[C@H](CCCNC(=N)N)NC(=O)[C@H](CCCNC(=N)N)NC(=O)[C@H](CCCNC(=N)N)NC(=O)[C@H](CCCNC(=N)N)NC(=O)[C@H](CCCNC(=N)N)NC(=O)[C@H](Cc1c[nH]c2ccccc12)NC(=O)[C@H](CCCNC(=N)N)NC(=O)[C@H](CCCNC(=N)N)NC(=O)[C@H](Cc1ccc(O)cc1)NC(=O)[C@H](CCCNC(=N)N)NC(=O)[C@H](CCCNC(=N)N)NC(=O)[C@H](CCCNC(=N)N)NC(=O)[C@@H](N)Cc1c[nH]c2ccccc12)C(N)=O the IC50 was 15.7 ± 1.5 µM (BT-474; cell viability, CellTiter-Blue; 24 h, serum-free medium).
With CCN1CC2(COC)CCC(O)C34C5CC6C(OC)CC(O)(C5C6OC(C)=O)C(C(OC)C23)C14 (stereo not shown) the IC50 was 18.5 µM (NCI-H460; cell growth or viability, MTT).
Cc1cc(C)c(-n2ccn(-c3c(C)cc(C)cc3C)c2=[Se])c(C)c1.[Cl][Au] gave an IC50 of 1.7 µM (LoVo; cell growth or viability, MTT; 72 h).
F[P-](F)(F)(F)(F)F.OCP(CO)CO.OCP(CO)CO.OCP(CO)CO.OCP(CO)CO.[Cu+] has an IC50 of 0.23 µM (LoVo; cell growth or viability, MTT; 72 h).
For CC(C)C[C@H](NC(=O)[C@@H](CCCCN)NC(=O)[C@H](Cc1c[nH]cn1)NC(=O)[C@H](CO)NC(=O)[C@H](Cc1c[nH]c2ccccc12)NC(=O)[C@H](Cc1c[nH]cn1)NC(=O)[C@@H]1CCC(=O)N1)C(=O)N[C@@H](CCCNC(=N)N)C(=O)N1CCC[C@H]1C(=O)NCC(N)=O, the IC50 was 0.0031 ± 0.0018 µM (WPE-1-NB26-3; cell growth, inhibitor, sulforhodamine B staining; four days).
The IC50 of Cc1cc(C)c(-n2c[n+](-c3c(C)cc(C)cc3C)c3c2-c2cccc4cccc-3c24)c(C)c1.[Cl][Pd-]([Cl])[CH2]C=Cc1ccccc1 is reported as 4 ± 1 µM (2008; cell growth, MTT; 72 h).
CCC(C)C1OC(=O)C(NC(=O)c2cccc(NC=O)c2O)C(C)OC(=O)C(C(C)CC)OC(=O)C(C)(C)C(=O)C(Cc2ccccc2)OC1=O (stereo not shown) has an IC50 of 9.69 ± 0.047 µM (HCT-8/T taxol-resistant; cell viability, CCK-8; 72 h).
For C[C@H]1C(OCCCCC[P+](c2ccccc2)(c2ccccc2)c2ccccc2)O[C@@H]2O[C@@]3(C)CCC4[C@H](C)CCC1[C@]42OO3 (stereo partly shown), the IC50 was 0.41 ± 0.0251 µM (HUVEC; cell viability, MTT; 72 h).
For CC[C@H](C)[C@@H]1NC(=O)[C@H](CCCNC(=N)N)NC(=O)C[C@@H](c2cccc3ccccc23)NC(=O)[C@@H]2CSSC[C@H](NC(=O)C[C@@H](c3cccc4ccccc34)NC(=O)[C@H](CCCNC(=N)N)NC(=O)[C@@H]3CCCN3C(=O)[C@@H]3CCCN3C1=O)C(=O)N[C@@H](Cc1ccccc1)C(=O)N1CCC[C@H]1C(=O)N[C@@H](CC(=O)O)C(=O)N[C@@H](CC(=O)O)C(=O)N[C@@H](Cc1ccccc1)C(=O)N2, the IC50 was 4.22 µM (NCI-H1975 (EGFR L858R/T790M); cell growth).
The IC50 of C[C@H]1C(OCCCCCCCC[P+](c2ccccc2)(c2ccccc2)c2ccccc2)O[C@@H]2O[C@@]3(C)CCC4[C@H](C)CCC1[C@]42OO3 (stereo partly shown) is reported as 0.0618 µM (J82; cell growth or viability, MTT; 72 h).
For Cc1cc(C)n(C(C(=O)OC(C)C)n2nc(C)cc2C)n1.F[P-](F)(F)(F)(F)F.[Cu+].c1ccc(P(c2ccccc2)c2ccccc2)cc1, the IC50 was 8.8 µM (BCPAP; cell growth or viability, MTT; 72 h).
CCN1CC2(COC)CCC(OC)C34C5CC6(O)C(OC)C(O)C(O)(C5C6OC(=O)c5ccccc5)C(C(OC)C23)C14 (stereo not shown) has an IC50 of 25.7 µM (HBE; cell growth or viability, MTT).
C[C@H]1C(OCCCCCCC[P+](c2ccccc2)(c2ccccc2)c2ccccc2)O[C@@H]2O[C@@]3(C)CCC4[C@H](C)CCC1[C@]42OO3 (stereo partly shown) has an IC50 of 0.162 ± 0.0041 µM (HUVEC; cell viability, MTT; 72 h).
With CC1=CC(C)=[N+]2C1=Cc1ccc(CCC(=O)NCC3C[NH][Pt]([Cl])([Cl])[NH]3)n1[B-]2(F)F (stereo not shown) the IC50 was 186 ± 47.2 µM (CP.5 single cells in 3D Matrigel; cytotoxicity, CellTiter-Glo; 1 days, pre-grown 1 day).
The IC50 of CCC(=O)C(NC(=O)c1ccccc1-c1ccc(C(F)(F)F)cc1)c1cccc(C(F)(F)F)c1 (stereo not shown) is reported as over 40 µM (KHYG-1 with Ba/F3-MICA cells; NKG2D-mediated cell killing, inhibitor; 6 h).
The IC50 of COCC12CN(C)C3C4C(OC)C1C3(C(OC)CC2O)C1CC2(O)C(O)C1C4(O)C(O)C2OC (stereo not shown) is reported as 20.2 µM (HBE; cell growth or viability, MTT).
With O=C(Cc1ccc2ccccc2c1)N[C@H](Cc1ccccc1)C(=O)N[C@H](Cc1ccccc1)C(=O)N[C@H](Cc1ccc(O)cc1)C(=O)N[C@H](Cc1ccc(O)cc1)C(=O)O the IC50 was over 500 µg/mL (T98G; cell growth or viability, MTT).
For CC(C)c1cccc(C(C)C)c1-n1c[n+](-c2c(C(C)C)cccc2C(C)C)c2c1-c1cccc3cccc-2c13.[Cl][Pd-]([Cl])[CH2]C=Cc1ccccc1, the IC50 was 48 µM (NTERA2; cell growth or viability; 72 h, 3D culture).
With O=C(C[P+]([Au-][Cl])(c1ccccc1)c1ccccc1)[O][Ti+2][O]C(=O)C[P+]([Au-][Cl])(c1ccccc1)c1ccccc1.c1cc[cH-]c1.c1cc[cH-]c1 the IC50 was 8.7 µM (A498; cell viability, XTT; 24 h).
The IC50 of CN(C)C(=O)[C@@H](NC(=O)c1cnccc1-c1ccc(C(F)(F)F)cc1)c1cccc(C(F)(F)F)c1 is reported as 0.6 ± 0.2 µM (KHYG-1 with Ba/F3-MICA cells; NKG2D-mediated cell killing, inhibitor; 6 h).
CNC(=O)c1cc(Oc2ccc(NC(=O)c3ccc(-c4cccc(OC(=O)CCC(=O)OC5OC6OC7(C)CCC8C(C)CCC(C5C)C68OO7)c4)cn3)cc2)ccn1 (stereo not shown) gave an IC50 of 30.7 µM (L02; cell growth or viability, MTT; 72 h).
For Cc1cc(C)c(N2CCN(c3c(C)cc(C)cc3C)C2=[Se])c(C)c1.[Cl][Ag], the IC50 was 3.2 µM (LoVo; cell growth or viability, MTT; 72 h).
Oc1c(Cl)cc(Cl)cc1-c1[nH]c(Cl)c(Cl)c1Cl has an IC50 of 0.15 µg/mL (MRC5; cell growth or viability, resazurin; 24 h).
With COCC12CN(C)C3C4C(OC)C1C3(C(OC)CC2O)C1CC2(O)C(OC)C(O)C4(OC(C)=O)C1C2OC(=O)c1ccccc1 (stereo not shown) the IC50 was 15.6 µM (NCI-H460; cell growth or viability, MTT).
C1N2CN3CN1CP(C2)C3.CC(C)OC(=O)C(n1cccn1)n1cccn1.F[P-](F)(F)(F)(F)F.[Cu+] gave an IC50 of 11 µM (LoVo; cell growth or viability, MTT; 72 h).
CC1=C(C(=O)Nc2ccc(F)cc2)C(c2ccccc2Cl)NC(=S)N1 (stereo not shown) gave an IC50 of 791 ± 58.6 µg/mL (PMA-differentiated THP-1; cell viability, MTT; 24 h).
CCN1CC2(COC)CCC(OC)C34C5CC6C(OC)CC(O)(C5C6OC(=O)c5ccccc5)C(C(OC)C23)C14 (stereo not shown) gave an IC50 of 34.1 µM (HBE; cell growth or viability, MTT).
The IC50 of COc1ccc(/C=C/C(=O)CC(=O)/C=C/c2ccc(OC)c(OC)c2)cc1OC is reported as 28.3 µM (human Astrocyte; cell growth or viability, MTS; 24 h).
The IC50 of CCN1CCNC1=[S+][Ag-3]([O][N+](=O)[O-])([P+](c1ccccc1)(c1ccccc1)c1ccccc1)[P+](c1ccccc1)(c1ccccc1)c1ccccc1 is reported as 13.2 µM (MG-63; MTT; 24 h).

A few entries again:
COC(=O)CC[C@@H](NC(=O)[C@@H](Cc1ccc(OP(=O)(O)O)cc1)NC(=O)[C@@H](Cc1ccccc1)NC(=O)[C@@H](Cc1ccccc1)NC(=O)Cc1ccc2ccccc2c1)C(=O)OC gave an IC50 of over 20 µM (OVSAHO; cell viability; day 1 (24 h)).
CNC(=O)c1cc(Oc2ccc(NC(=O)CCC(=O)OC3OC4OC5(C)CCC6C(C)CCC(C3C)C46OO5)cc2)ccn1 (stereo not shown) gave an IC50 of 50.8 µM (L02; cell growth or viability, MTT; 72 h).
Cc1cc(C)c(-n2ccn(-c3c(C)cc(C)cc3C)c2=[Se])c(C)c1.[Cl][Au] gave an IC50 of 1.7 µM (LoVo; cell growth or viability, MTT; 72 h).
